Assay results gathered from unrelated publications.
Each numbered part is a random draw from the data of one study; scales do not carry over between parts.

Block 1
Target: TAR DNA-binding protein 43, full length, His tag (TARDBP, Homo sapiens, UniProt Q13148, residues 1-414)
Technique: RNA Bind-n-Seq
Molecule type: RNA
Medium: in vitro
Concentration: 20 nM
Setting: 6-mer, flanks averaged, single round
Together with: 150 mM LiCl
Baseline: input library
Reading: higher = stronger binding
| Sequence | 6-mer enrichment (R) |
| --- | --- |
| UAAGUA | 0.967 |
| AGUGGC | 1.07 |
| CCUAAC | 0.858 |
| GCUGUC | 0.939 |
| CAUCAC | 0.845 |
| UGGAGU | 1.16 |
| GCCUAA | 0.871 |
| CGUAAU | 0.885 |
| CAAGCG | 0.891 |

Block 2
Target: Transcriptional repressor CTCF (CTCF, Homo sapiens, UniProt P49711, residues 1-727, full length assumed)
Chain of UniProt P49711 (whole entry, looked up): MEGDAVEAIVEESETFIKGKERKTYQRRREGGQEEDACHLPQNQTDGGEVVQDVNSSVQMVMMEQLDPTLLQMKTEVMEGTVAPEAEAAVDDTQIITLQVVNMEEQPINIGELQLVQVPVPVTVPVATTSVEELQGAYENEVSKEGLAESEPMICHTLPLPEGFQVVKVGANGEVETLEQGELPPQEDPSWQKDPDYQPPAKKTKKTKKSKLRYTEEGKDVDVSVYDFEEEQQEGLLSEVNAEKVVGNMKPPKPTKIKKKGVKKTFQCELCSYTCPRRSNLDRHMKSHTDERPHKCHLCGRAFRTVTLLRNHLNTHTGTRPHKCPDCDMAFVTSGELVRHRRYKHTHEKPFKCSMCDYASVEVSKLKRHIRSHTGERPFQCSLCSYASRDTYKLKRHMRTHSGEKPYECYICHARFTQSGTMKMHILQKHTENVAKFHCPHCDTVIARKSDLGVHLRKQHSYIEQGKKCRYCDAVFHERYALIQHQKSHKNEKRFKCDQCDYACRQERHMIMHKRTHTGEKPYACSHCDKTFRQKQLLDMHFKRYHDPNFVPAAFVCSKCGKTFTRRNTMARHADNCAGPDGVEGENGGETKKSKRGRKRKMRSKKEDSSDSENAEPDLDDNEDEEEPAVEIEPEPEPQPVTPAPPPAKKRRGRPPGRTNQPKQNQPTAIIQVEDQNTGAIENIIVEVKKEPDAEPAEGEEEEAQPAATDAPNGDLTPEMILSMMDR
Technique: protein-binding microarray
Molecule type: double-stranded DNA, one strand shown
Medium: in vitro
Concentration: not given
Setting: k-mer, scored over probes, only values ≥0.25
Reading: higher = stronger binding
| Sequence | E-score |
| --- | --- |
| AATGTAAT | 0.294 |
| AGTAGCGC | 0.334 |
| GTGTAATA | 0.295 |
| CGTATTTC | 0.293 |
| ATATATTA | 0.403 |
| GTGTATAA | 0.315 |
| AACAATTA | 0.257 |

Block 3
Target: Interferon regulatory factor 3, full length, phosphomimetic (IRF3, Homo sapiens, UniProt Q14653, residues 1-427, S386D/S396D/S398D/S402D/T404D/S405D)
Technique: protein-binding microarray
Molecule type: double-stranded DNA, one strand shown
Medium: in vitro
Concentration: 2540 nM top
Setting: 60-bp whole probe
Together with: salmon DNA 0.4 mg/ml
Baseline: random background probes
Reading: higher = stronger binding
All sequences stand within: GCCTAGCAC … GTCTTGATTCGCTTGACGCTGCTG
Target sequence (chain): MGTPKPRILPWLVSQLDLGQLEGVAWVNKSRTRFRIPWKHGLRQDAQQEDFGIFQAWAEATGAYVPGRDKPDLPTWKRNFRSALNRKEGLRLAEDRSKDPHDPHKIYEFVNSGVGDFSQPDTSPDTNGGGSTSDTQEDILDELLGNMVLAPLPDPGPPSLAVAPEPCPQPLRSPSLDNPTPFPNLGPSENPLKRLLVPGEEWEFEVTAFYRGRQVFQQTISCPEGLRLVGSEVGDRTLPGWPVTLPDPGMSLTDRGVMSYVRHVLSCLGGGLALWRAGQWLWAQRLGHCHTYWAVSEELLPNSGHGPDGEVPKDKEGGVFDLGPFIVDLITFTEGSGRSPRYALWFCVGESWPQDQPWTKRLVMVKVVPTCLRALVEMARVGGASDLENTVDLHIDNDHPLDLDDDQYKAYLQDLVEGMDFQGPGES
| Sequence | fitted relative affinity |
| --- | --- |
| CGTCATTTCACAGTTAACCAGTGCTAG | 1.27 z-score |
| CCTAGCCTCCCAGCCCAGCAGTGCTAG | -0.366 z-score |
| TCACTTCTAATATTCATACTGTGCTAG | 1.86 z-score |
| TTAGATATCATTATCGATTAGTGCTAG | 1.47 z-score |
| GACGGTATCGGCTTTCGGGACGTGCTA | 1.36 z-score |
| TCAGCTTCCTCTTTCTCACTGTGCTAG | 1.78 z-score |
| GAAGGTTTCGGGTTTCGGGACGTGCTA | 5.59 z-score |
| GACGGCCTCGGTATCGGGACGTGCTAG | -0.0918 z-score |

Mixed results
| Substance | target | test | test system | conditions | scale | measurement | value |
| --- | --- | --- | --- | --- | --- | --- | --- |
| PhoQ, residues 284 288 289 292 302 303 SQSLSM | PhoP, residues 12 14 15 18 19 YHFSH (Escherichia coli, UniProt P23836) | Sort-seq, refers to: YFP reporter | E. coli | PhoQ-PhoP variant library, together with: 10 µM Mg2+ | baseline: high Mg2+ state, higher = stronger signaling | fold induction | 1.32 |
